# Measured values gathered from unrelated publications.
# ± gives the spread as reported.
# Technique: steady-state kinetics
# B1: UCK2 (Homo sapiens, UniProt Q9BZX2); chain MAGDSEQTLQNHQQPNGGEPFLIGVSGGTASGKSSVCAKIVQLLGQNEVDYRQKQVVILSQDSFYRVLTSEQKAKALKGQFNFDHPDAFDNELILKTLKEITEGKTVQIPVYDFVSHSRKEETVTVYPADVVLFEGILAFYSQEVRDLFQMKLFVDTDADTRLSRRVLRDISERGRDLEQILSQYITFVKPAFEEFCLPTKKYADVIIPRGADNLVAINLIVQHIQDILNGGPSKRQTNGCLNGYTPSRKRQASESSSRPH
# B2: Ma-WS/DGAT A144F (Marinobacter nauticus); chain MTPLNPTDQLFLWLEKRQQPMHVGGLQLFSFPEGAPDDYVAQLADQLRQKTEVTAPFNQRLSYRLGQPVWVEDEHLDLEHHFRFEALPTPGRIRELLSFVSAEHSHLMDRERPMWEVHLIEGLKDRQFALYTKVHHSLVDGVSFMRMATRMLSENPDEHGMPPIWDLPCLSRDRGESDGHSLWRSVTHLLGLSGRQLGTIPTVAKELLKTINQARKDPAYDSIFHAPRCMLNQKITGSRRFAAQSWCLKRIRAVCEAYGTTVNDVVTAMCAAALRTYLMNQDALPEKPLVAFVPVSLRRDDSSGGNQVGVILASLHTDVQEAGERLLKIHHGMEEAKQRYRHMSPEEIVNYTALTLAPAAFHLLTGLAPKWQTFNVVISNVPGPSRPLYWNGAKLEGMYPVSIDMDRLALNMTLTSYNDQVEFGLIGCRRTLPSLQRMLDYLEQGLAELELNAGL
# B3: cyc1 L72V (Streptomyces coelicolor, UniProt Q9K499); chain MHAFPHGTTATPTAIAVPPSLRLPVIEAAFPRQLHPYWPKLQETTRTWLLEKRLMPADKVEEYADGLCYTDVMAGYYLGAPDEVLQAIADYSAWFFVWDDRHDRDIVHGRAGAWRRLRGLLHTALDSPGDHLHHEDTLVAGFADSVRRLYAFLPATWNARFARHFHTVIEAYDREFHNRTRGIVPGVEEYLELRRLTFAHWIWTDLLEPSSGCELPDAVRKHPAYRRAALLSQEFAAWYNDLCSLPKEIAGDEVHNLGISLITHHSLTLEEAIGEVRRRVEECITEFLAVERDALRFADELADGTVRGKELSGAVRANVGNMRNWFSSVYWFHHESGRYMVDSWDDRSTPPYVNNEAAGEK
# B4: PPIP5K2 (Homo sapiens, UniProt O43314); chain MSEAPRFFVGPEDTEINPGNYRHFFHHADEDDEEEDDSPPERQIVVGICSMAKKSKSKPMKEILERISLFKYITVVVFEEEVILNEPVENWPLCDCLISFHSKGFPLDKAVAYAKLRNPFVINDLNMQYLIQDRREVYSILQAEGILLPRYAILNRDPNNPKECNLIEGEDHVEVNGEVFQKPFVEKPVSAEDHNVYIYYPTSAGGGSQRLFRKIGSRSSVYSPESNVRKTGSYIYEEFMPTDGTDVKVYTVGPDYAHAEARKSPALDGKVERDSEGKEVRYPVILNAREKLIAWKVCLAFKQTVCGFDLLRANGQSYVCDVNGFSFVKNSMKYYDDCAKILGNIVMRELAPQFHIPWSIPLEAED
# B5: UGT1A9 (Homo sapiens, UniProt O60656); chain GKLLVVPMDGSHWFTMRSVVEKLILRGHEVVVVMPEVSWQLGRSLNCTVKTYSTSYTLEDLDREFKAFAHAQWKAQVRSIYSLLMGSYNDIFDLFFSNCRSLFKDKKLVEYLKESSFDAVFLDPFDNCGLIVAKYFSLPSVVFARGILCHYLEEGAQCPAPLSYVPRILLGFSDAMTFKERVRNHIMHLEEHLLCHRFFKNALEIASEILQTPVTEYDLYSHTSIWLLRTDFVLDYPKPVMPNMIFIGGINCHQGKPLPMEFEAYINASGEHGIVVFSLGSMVSEIPEKKAMAIADALGKIPQTVLWRYTGTRPSNLANNTILVKWLPQNDLLGHPMTRAFITHAGSHGVYESICNGVPMVMMPLFGDQMDNAKRMETKGAGVTLNVLEMTSEDLENALKAVINDKSYKENIMRLSSLHKDRPVEPLDLAVFWVEFVMRHKGAPHLRPAAHDLTWYQYHSLDVIGFLLAVVLTVAFITFKCCAYGYRKCLGKKGRVKKAHKSKTH
# B6: enzyme P89H (Thermobifida fusca, UniProt Q47RA9); chain MIMIMASKSSPHDLPDVSGLSIAVLGGTGDQGRGLARRFAMAGHEVILGSRSAERAQAVAAELGEGLPVRGMDNAGAAEAGDVVIVAVHWDGHRALLESLKDVLAGKIVVDCVNPLGFDKRGAYALPVEEGSAAEQAAAILPDSRVVAAFHHVSAVLLLDPEVEKVDLDVLVLGDDREATDVVRALAARIPGVRGVYGGRLRNAHQVEAFTANLISINRRYKAHAGIRITDI
# B7: ERAP1 K528R (Homo sapiens, UniProt Q9NZ08); chain MVFLPLKWSLATMSFLLSSLLALLTVSTPSWCQSTEASPKRSDGTPFPWNKIRLPEYVIPVHYDLLIHANLTTLTFWGTTKVEITASQPTSTIILHSHHLQISRATLRKGAGERLSEEPLQVLEHPRQEQIALLAPEPLLVGLPYTVVIHYAGNLSETFHGFYKSTYRTKEGELRILASTQFEPTAARMAFPCFDEPAFKASFSIKIRREPRHLAISNMPLVKSVTVAEGLIEDHFDVTVKMSTYLVAFIISDFESVSKITKSGVKVSVYAVPDKINQADYALDAAVTLLEFYEDYFSIPYPLPKQDLAAIPDFQSGAMENWGLTTYRESALLFDAEKSSASSKLGITMTVAHELAHQWFGNLVTMEWWNDLWLNEGFAKFMEFVSVSVTHPELKVGDYFFGKCFDAMEVDALNSSHPVSTPVENPAQIREMFDDVSYDKGACILNMLREYLSADAFKSGIVQYLQKHSYKNTKNEDLWDSMASICPTDGVKGMDGFCSRSQHSSSSSHWHQEGVDVKTMMNTWTLQRGFPLITITVRGRNVHMKQEHYMKGSDGAPDTGYLWHVPLTFITSKSDMVHRFLLKTKTDVLILPEEVEWIKFNVGMNGYYIVHYEDDGWDSLTGLLKGTHTAVSSNDRASLINNAFQLVSIGKLSIEKALDLSLYLKHETEIMPVFQGLNELIPMYKLMEKRDMNEVETQFKAFLIRLLRDLIDKQTWTDEGSVSERMLRSQLLLLACVHNYQPCVQRAEGYFRKWKESNGNLSLPVDVTLAVFAVGAQSTEGWDFLYSKYQFSLSSTEKSQIEFALCRTQNKEKLQWLLDESFKGDKIKTQEFPQILTLIGRNPVGYPLAWQFLRKNWNKLVQKFELGSSSIAHMVMGTTNQFSTRTRLEEVKGFFSSLKENGSQLRCVQQTIETIEENIGWMDKNFDKIRVWLQSEKLEHDPEADATG
# B8: protein (Stereum hirsutum, UniProt P9WEW2); chain MAVATSVATPVPTPAYSAGRAPAKEKKIYLPDTLAEWPWPRAINPHYAEAKEESQAWAASFNAFSPKAQHAFNRCDFNLLASLAYPLATKHGCRSGCDLMNLFFVIDEYSDIAPVEEVRQQKDIVMDALRNPHKPRPEGEWVGGEVARQFWALTITNASAQSQKHFIETFDEYLDSVVQQAEDRSESRIRDIQSYIDVRRNTIGAKPSFALLELDMDLPDEVLAHPTIQSLSLATIDMLCLGNDIVSYNLEQARGDASHNIITIVMNELNLDVNGAMRWVGDFHKQLEKQFFEAFNNLPKWGNAELDAQIAVYCDGLGNWVRANDQWSFESERYFGARGLEIMETKTLAMMPIQRTEALGPQLVDDSIL
# Sequence of UniProt Q04049 (whole entry, looked up): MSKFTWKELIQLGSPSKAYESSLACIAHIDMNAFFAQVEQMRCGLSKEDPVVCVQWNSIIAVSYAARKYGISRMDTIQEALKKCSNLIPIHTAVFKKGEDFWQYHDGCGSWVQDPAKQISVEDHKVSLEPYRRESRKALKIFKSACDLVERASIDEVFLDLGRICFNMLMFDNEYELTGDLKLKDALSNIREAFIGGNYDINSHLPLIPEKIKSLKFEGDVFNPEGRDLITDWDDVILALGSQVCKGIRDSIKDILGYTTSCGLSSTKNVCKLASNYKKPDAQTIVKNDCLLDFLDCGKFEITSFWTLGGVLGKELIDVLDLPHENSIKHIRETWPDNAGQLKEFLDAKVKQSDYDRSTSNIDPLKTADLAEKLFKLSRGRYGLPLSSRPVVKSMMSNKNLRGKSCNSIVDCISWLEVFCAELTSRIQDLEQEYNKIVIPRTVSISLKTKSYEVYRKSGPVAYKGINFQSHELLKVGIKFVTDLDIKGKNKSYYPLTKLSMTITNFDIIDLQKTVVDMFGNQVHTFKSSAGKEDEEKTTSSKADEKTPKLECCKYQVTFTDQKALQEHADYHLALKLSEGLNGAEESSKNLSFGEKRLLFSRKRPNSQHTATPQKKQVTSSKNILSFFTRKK
# Sequence of UniProt O31743 (whole entry, looked up): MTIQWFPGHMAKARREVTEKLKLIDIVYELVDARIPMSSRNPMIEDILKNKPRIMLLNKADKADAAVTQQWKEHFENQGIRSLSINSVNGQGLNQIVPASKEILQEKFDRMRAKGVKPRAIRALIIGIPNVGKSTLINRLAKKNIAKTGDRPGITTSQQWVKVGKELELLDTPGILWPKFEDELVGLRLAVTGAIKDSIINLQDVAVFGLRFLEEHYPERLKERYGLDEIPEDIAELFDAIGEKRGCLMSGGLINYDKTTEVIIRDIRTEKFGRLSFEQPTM
# Sequence of UniProt P19337 (whole entry, looked up): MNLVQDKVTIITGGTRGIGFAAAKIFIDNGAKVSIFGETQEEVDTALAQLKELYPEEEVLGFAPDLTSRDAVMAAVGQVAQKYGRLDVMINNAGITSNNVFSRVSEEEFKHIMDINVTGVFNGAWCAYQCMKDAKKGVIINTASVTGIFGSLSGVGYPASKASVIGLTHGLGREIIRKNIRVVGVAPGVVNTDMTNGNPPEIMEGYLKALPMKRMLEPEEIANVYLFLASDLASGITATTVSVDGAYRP
# Sequence of UniProt P14780 (whole entry, looked up): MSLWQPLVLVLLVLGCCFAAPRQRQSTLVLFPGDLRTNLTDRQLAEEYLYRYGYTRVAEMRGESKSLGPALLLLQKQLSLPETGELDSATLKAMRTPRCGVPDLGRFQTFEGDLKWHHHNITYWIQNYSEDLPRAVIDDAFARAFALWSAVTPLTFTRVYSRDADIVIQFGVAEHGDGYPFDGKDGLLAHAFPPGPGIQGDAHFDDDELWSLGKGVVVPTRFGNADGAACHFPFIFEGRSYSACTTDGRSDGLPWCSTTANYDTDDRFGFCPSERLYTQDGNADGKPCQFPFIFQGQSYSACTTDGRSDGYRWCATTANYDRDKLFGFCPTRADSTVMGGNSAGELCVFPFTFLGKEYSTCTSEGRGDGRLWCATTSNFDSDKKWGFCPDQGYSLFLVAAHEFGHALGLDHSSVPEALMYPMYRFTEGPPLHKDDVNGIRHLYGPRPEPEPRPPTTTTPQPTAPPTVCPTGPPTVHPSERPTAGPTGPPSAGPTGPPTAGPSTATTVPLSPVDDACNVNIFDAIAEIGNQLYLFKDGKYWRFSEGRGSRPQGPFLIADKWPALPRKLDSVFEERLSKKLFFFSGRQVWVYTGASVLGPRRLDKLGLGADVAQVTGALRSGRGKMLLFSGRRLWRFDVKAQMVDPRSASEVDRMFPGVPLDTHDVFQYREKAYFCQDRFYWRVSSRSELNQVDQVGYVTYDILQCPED
# Sequence of UniProt B7MMH5 (whole entry, looked up): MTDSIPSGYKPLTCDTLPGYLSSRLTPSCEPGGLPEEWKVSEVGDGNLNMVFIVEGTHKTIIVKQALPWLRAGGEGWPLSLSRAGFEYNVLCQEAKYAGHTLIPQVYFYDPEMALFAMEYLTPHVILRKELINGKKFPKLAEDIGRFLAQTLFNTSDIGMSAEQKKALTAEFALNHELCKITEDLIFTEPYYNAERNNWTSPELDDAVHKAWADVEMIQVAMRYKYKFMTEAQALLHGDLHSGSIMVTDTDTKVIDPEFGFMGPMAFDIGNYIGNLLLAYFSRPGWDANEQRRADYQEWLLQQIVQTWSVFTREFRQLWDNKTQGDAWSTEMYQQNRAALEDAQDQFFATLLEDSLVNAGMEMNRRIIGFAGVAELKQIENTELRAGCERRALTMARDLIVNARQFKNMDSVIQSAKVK
Substance,substrate,setting,quantity,result
B1 (UCK2),Nc1ccn([C@@H]2O[C@H](CO)[C@@H](O)[C@H]2O)c(=O)n1,"pH 7.2, 25 °C, KCl 100 mM, with: ATP 100–200 µM",kcat/Km,100000 M⁻¹ s⁻¹
B2 (Ma-WS/DGAT A144F),CCCCCC(=O)SCCNC(=O)CCNC(=O)[C@H](O)C(C)(C)COP(=O)(O)OP(=O)(O)OC[C@H]1O[C@@H](n2cnc3c(N)ncnc32)[C@H](O)[C@@H]1OP(=O)(O)O,"pH 7.5, 25 °C, NaCl 300 mM, apparent, with: 1-hexanol 4 mM",kcat/Km,5130 ± 264 M⁻¹ s⁻¹
B3 (cyc1 L72V),CC(C)=CCC/C(C)=C/CC/C(C)=C/CO[P@@](=O)(O)OP(=O)(O)O,"pH 6.5, 30 °C, with: MgCl2 10 mM",kcat/Km,70000 ± 20000 M⁻¹ s⁻¹
B4 (PPIP5K2),Nc1ncnc2c1ncn2[C@@H]1O[C@H](COP(=O)(O)OP(=O)(O)OP(=O)(O)O)[C@@H](O)[C@H]1O,,kcat/Km,5900 M⁻¹ s⁻¹
"RbgA (Bacillus subtilis, UniProt O31743)",Nc1nc2c(ncn2[C@@H]2O[C@H](COP(=O)(O)OP(=O)(O)OP(=O)(O)O)[C@@H](O)[C@H]2O)c(=O)[nH]1,"pH 7.5, 37 °C, KCl 200 mM, free enzyme, apparent, with: GTP 0-1 mM",kcat/Km,27.8 M⁻¹ s⁻¹
"RAD30 (Saccharomyces cerevisiae, UniProt Q04049)",Cc1cn([C@H]2C[C@H](O)[C@@H](COP(=O)(O)OP(=O)(O)OP(=O)(O)O)O2)c(=O)[nH]c1=O,"pH 7.5, room temperature, apparent Km, apparent, with: dG 10 nM primer-template",kcat/Km,80 M⁻¹ s⁻¹
"alanine aminopeptidase (Neisseria meningitidis, UniProt Q9JYV4)",NC(=O)Cc1cc(=O)oc2cc(NC(=O)[C@@H](N)CC(=O)OCc3ccccc3)ccc12,"pH 7.5, 37 °C",kcat/Km,31000 ± 1000 M⁻¹ s⁻¹
B5 (UGT1A9),O=[N+]([O-])c1ccc(O)cc1,"pH 7.4, 37 °C",Km,80.6 µM
"MMP9 (Homo sapiens, UniProt P14780)",CC(=O)N[C@@H](CCC(N)=O)C(=O)N1CCC[C@H]1C(=O)N[C@@H](CCC(N)=O)C(=O)NCC(=O)N[C@@H](CC(C)C)C(=O)N[C@@H](C)C(=O)N[C@@H](CCCCN)C(N)=O,,kcat/Km,21000 M⁻¹ s⁻¹
B6 (enzyme P89H),NC(=O)c1ccc[n+](CCO)c1,"pH 8, 25 °C",kcat/Km,2.4 ± 0.44 M⁻¹ s⁻¹
"Ptb (Listeria monocytogenes, UniProt Q8Y7B7)",CC(C)CC(=O)SCCNC(=O)CCNC(=O)[C@H](O)C(C)(C)COP(=O)(O)OP(=O)(O)OC[C@H]1O[C@@H](n2cnc3c(N)ncnc32)[C@H](O)[C@@H]1OP(=O)(O)O,"pH 7.5, 25 °C, apparent",kcat/Km,1.96e+07 M⁻¹ s⁻¹
"BaiA2 (Clostridium scindens, UniProt P19337)",C[C@H](CCC(=O)SCCNC(=O)CCNC(=O)[C@H](O)C(C)(C)COP(=O)(O)OP(=O)(O)OC[C@H]1O[C@@H](n2cnc3c(N)ncnc32)[C@H](O)[C@@H]1OP(=O)(O)O)[C@H]1CC[C@H]2[C@@H]3[C@H](O)C[C@@H]4C[C@H](O)CC[C@]4(C)[C@H]3CC[C@]12C,"pH 8.7, 37 °C, with: NAD+",kcat/Km,8700 M⁻¹ s⁻¹
B7 (ERAP1 K528R),CC(C)C[C@H](N)C(=O)N[C@@H](CO)C(=O)N[C@@H](CCCNC(=N)N)C(=O)N[C@@H](Cc1c[nH]cn1)C(=O)N[C@@H](Cc1c[nH]cn1)C(=O)N[C@@H](C)C(=O)N[C@@H](Cc1ccccc1)C(=O)N[C@@H](CO)C(=O)N[C@@H](Cc1ccccc1)C(=O)N[C@@H](CCCNC(=N)N)C(=O)O,25 °C,kcat/Km,300000 ± 55000 M⁻¹ s⁻¹
"mtnK (Escherichia coli, UniProt B7MMH5)",Nc1ncnc2c1ncn2[C@@H]1O[C@H](COP(=O)(O)OP(=O)(O)OP(=O)(O)O)[C@@H](O)[C@H]1O,"pH 7.8, 30 °C, with: 5-deoxyribose",kcat/Km,170000 M⁻¹ s⁻¹
B8 (protein),CC(C)=CCC/C(C)=C/CC/C(C)=C/CO[P@@](=O)(O)OP(=O)(O)O,"pH 8, NaCl 200 mM, with: FPP 1–100 µM",kcat/Km,4180 ± 510 M⁻¹ s⁻¹

# A few entries again:
Substance,substrate,setting,quantity,result
B3 (cyc1 L72V),CC(C)=CCC/C(C)=C/CC/C(C)=C/CO[P@@](=O)(O)OP(=O)(O)O,"pH 6.5, 30 °C, with: MgCl2 10 mM",kcat/Km,70000 ± 20000 M⁻¹ s⁻¹
B4 (PPIP5K2),Nc1ncnc2c1ncn2[C@@H]1O[C@H](COP(=O)(O)OP(=O)(O)OP(=O)(O)O)[C@@H](O)[C@H]1O,,kcat/Km,5900 M⁻¹ s⁻¹
"RbgA (Bacillus subtilis, UniProt O31743)",Nc1nc2c(ncn2[C@@H]2O[C@H](COP(=O)(O)OP(=O)(O)OP(=O)(O)O)[C@@H](O)[C@H]2O)c(=O)[nH]1,"pH 7.5, 37 °C, KCl 200 mM, free enzyme, apparent, with: GTP 0-1 mM",kcat/Km,27.8 M⁻¹ s⁻¹
